Results collected from several papers.
A part holds a random share of what one study measured. Several values in a cell are separate wells, animals, samples, runs or records.
Sequence of UniProt Q2M2I8 (whole entry, looked up): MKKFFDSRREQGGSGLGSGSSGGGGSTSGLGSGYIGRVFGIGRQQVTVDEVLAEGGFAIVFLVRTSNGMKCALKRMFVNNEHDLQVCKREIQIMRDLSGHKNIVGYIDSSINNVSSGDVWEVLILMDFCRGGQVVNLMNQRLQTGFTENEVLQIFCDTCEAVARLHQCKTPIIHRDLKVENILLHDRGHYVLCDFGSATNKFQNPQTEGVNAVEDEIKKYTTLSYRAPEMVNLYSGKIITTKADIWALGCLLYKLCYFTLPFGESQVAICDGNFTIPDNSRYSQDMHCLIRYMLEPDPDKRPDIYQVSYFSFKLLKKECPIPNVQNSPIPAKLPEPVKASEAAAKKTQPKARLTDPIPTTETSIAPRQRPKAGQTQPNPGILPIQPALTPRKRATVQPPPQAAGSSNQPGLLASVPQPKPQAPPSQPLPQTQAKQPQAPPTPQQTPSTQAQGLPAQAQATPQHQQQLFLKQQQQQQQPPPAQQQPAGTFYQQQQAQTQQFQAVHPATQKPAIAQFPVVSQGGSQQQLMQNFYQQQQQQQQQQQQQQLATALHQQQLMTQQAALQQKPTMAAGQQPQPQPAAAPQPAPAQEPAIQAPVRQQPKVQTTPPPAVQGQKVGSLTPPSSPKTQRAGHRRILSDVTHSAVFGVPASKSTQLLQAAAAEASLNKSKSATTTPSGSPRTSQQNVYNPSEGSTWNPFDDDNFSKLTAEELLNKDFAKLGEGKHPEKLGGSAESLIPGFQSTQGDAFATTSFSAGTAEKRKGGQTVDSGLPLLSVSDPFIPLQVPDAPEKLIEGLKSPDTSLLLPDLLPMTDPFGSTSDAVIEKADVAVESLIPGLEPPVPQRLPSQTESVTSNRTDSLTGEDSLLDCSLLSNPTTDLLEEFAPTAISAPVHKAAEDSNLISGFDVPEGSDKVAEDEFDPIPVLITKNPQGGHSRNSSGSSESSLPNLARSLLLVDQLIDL

Block 1
SMILES: CC(=O)N[C@@H](Cc1c[nH]c2ccccc12)C(=O)N[C@@H](CCC(=O)C=[N+]=[N-])C(=O)OC(C)C
test system | setting | tumour volume
mice, MC-38 tumour rechallenge | 0.26 mg/kg, day 18 after injection | 0 mm3
mouse, EL4 tumour | subcutaneous, 1 mg/kg, day 9 | 107 mm3 and 447 mm3 and 215 mm3 and 220 mm3 and 316 mm3 and 261 mm3
mice, MC-38 tumour rechallenge | 1 mg/kg, day 67 after injection | 0 mm3
C57BL/6 CES1-/- mouse, EL4 tumour | intravenous, 1 mg/kg DON equivalent, treatment day 14, 5 days per week | 142 mm3 and 137 mm3 and 0 mm3 and 177 mm3 and 176 mm3 and 243 mm3 and 184 mm3 and 96 mm3
mouse, EL4 tumour | subcutaneous, 0.1 mg/kg, day 7 | 564 mm3 and 400 mm3 and 471 mm3 and 389 mm3 and 896 mm3 and 450 mm3
mouse, EL4 tumour | subcutaneous, 0.1 mg/kg, day 10 | 635 mm3 and 335 mm3 and 586 mm3 and 621 mm3 and 1330 mm3 and 558 mm3
mice, MC-38 tumour rechallenge | 0.26 mg/kg, day 35 after injection | 0 mm3
mice, MC-38 tumour rechallenge | 0.26 mg/kg, day 32 after injection | 0 mm3
mice, MC-38 tumour rechallenge | 1 mg/kg, day 57 after injection | 0 mm3
mice, MC-38 tumour rechallenge | 0.26 mg/kg, day 50 after injection | 0 mm3

Block 2 — organism: Plasmodium berghei; action: inhibitor; cells: Huh-7; strain: GFP-expressing, liver stage; concentration: 10 µM; time: 24 h; relative to: untreated control
SMILES | infection rate [%]
NNCCc1ccccc1 | 81.9
CC[C@@H]1C(=O)OC[C@@H]1Cc1cncn1C | 105
O=C(Oc1ccccc1C(=O)O)c1ccccc1O | 119
CC(CN(C)C)CN1c2ccccc2Sc2ccccc21 (stereo not drawn) | 73.1
CCC[C@H](N[C@@H](C)C(=O)N1[C@H](C(=O)O)C[C@@H]2CCCC[C@@H]21)C(=O)OCC | 111
OCc1ccccc1O | 101
CN1CCCN=C1COC(=O)C(O)(c1ccccc1)C1CCCCC1 (stereo not drawn) | 91.6
CN[C@@H]1[C@@H](O)[C@@H](O[C@@H]2[C@@H](O)[C@H](O[C@H]3OC(CN)=CC[C@H]3N)[C@@H](N)C[C@H]2N)OC[C@]1(C)O | 68.8
COc1ccc(NS(=O)(=O)c2ccc(N)cc2)nn1 | 94.7
COc1ccc2c(c1OC)C(=O)O[C@@H]2[C@H]1c2c(cc3c(c2OC)OCO3)CCN1C | 100
Nc1ccc(S(=O)(=O)Nc2ccccn2)cc1 | 108
C#C[C@]1(OC(C)=O)CC[C@H]2[C@@H]3CCC4=CC(=NO)CC[C@@H]4[C@H]3CC[C@@]21CC (mixture of isomers) | 16.4
CCOC(=O)C1=C[C@]2(CC)CCCN3CCc4c(n1c1ccccc41)[C@@H]32 | 96.7
OCCc1ccccc1 | 95.3
Nc1ncnc2c1ncn2[C@@H]1O[C@H](CO)[C@@H](O)[C@@H]1O | 67
NC(=O)NC(=O)Cc1ccccc1 | 109
CNCCC=C1c2ccccc2CCc2ccccc21 | 79.9

Block 3 — cell line: mouse MPNST tumor cells; method: high-content immunofluorescence imaging; measured: nuclear SOX9; concentration: 10 µM; time: 12 h; setting: mean of 2 replicates; relative to: DMSO control; reading: higher = more nuclear SOX9
SMILES | nuclear SOX9 intensity
COCCc1ccc(OCC(O)CNC(C)C)cc1 (racemic) | 102 % of DMSO
O=S1(=O)N[C@H]2CCCN2c2ccccc21 | 102 % of DMSO
CN1Cc2c(C(=O)OC(C)(C)C)ncn2-c2ccsc2C1=O | 92.7 % of DMSO
O=C(COCC(=O)N1CCN(C(c2ccccc2)c2ccccc2)CC1)Nc1ccc(Cl)cc1C(=O)O | 88.8 % of DMSO
O=C(COCC(=O)Nc1ccc(Cl)cc1C(=O)O)Nc1cccc(-c2ccoc2)c1 | 117 % of DMSO
CN1CCOC(c2ccccc2)c2ccccc2C1 (stereo not drawn) | 105 % of DMSO
O=C(O)CCNC(=O)c1ccc(/N=N/c2ccc(O)c(C(=O)O)c2)cc1 | 96.1 % of DMSO
O=C1CC[C@@H](C(=O)N2CSC[C@H]2C(=O)O)N1 | 93 % of DMSO
C#Cc1cccc(Nc2ncnc3cc(OCCOC)c(OCCOC)cc23)c1 | 90.9 % of DMSO
CC12CCC(=O)C=C1CCC1C2C(O)CC2(C)C1CCC2(O)C(=O)CO (stereo not drawn) | 86.7 % of DMSO

Single results of other studies
Structure (SMILES) | target or system | test | setting | measurement | result
C[C@H](NC(=O)Nc1cc2[nH]ncc2c(CO)n1)c1ccccn1 | AAK1 (Homo sapiens, UniProt Q2M2I8) | binding | 1 µM | remaining binding | 100%
Cn1cncc1[C@@](O)(COc1ccc(C#N)cc1-c1ccc(OC(F)(F)F)cc1)c1ccc(C#N)cc1 | HEK293T | high-content imaging | 10 µM, 12 h | mitotic cells | 77.3% and 65.8%

Repeated from above (block 3):
SMILES | nuclear SOX9 intensity
CN1CCOC(c2ccccc2)c2ccccc2C1 (stereo not drawn) | 105 % of DMSO
O=C(O)CCNC(=O)c1ccc(/N=N/c2ccc(O)c(C(=O)O)c2)cc1 | 96.1 % of DMSO
